Published values of several laboratories.
A part holds a random share of what one study measured. Positions count from the first letter of the parent shown.

Set 1 — method: RNA Bind-n-Seq; form: RNA; matrix: in vitro; tested at: 365 nM; relative to: no-protein control; direction: higher = stronger binding
Target: RNA binding protein fox-1 homolog 2, RRM domain, GST-SBP tag (RBFOX2, Homo sapiens, UniProt O43251-10, residues 100-194)
Setting: natural RNA segment, single round, ends assumed
Constant ends, left off below: GGGAGUUCUACAGUCCGACGAUC … UGGAAUUCUCGGGUGCCAA
Construct (chain): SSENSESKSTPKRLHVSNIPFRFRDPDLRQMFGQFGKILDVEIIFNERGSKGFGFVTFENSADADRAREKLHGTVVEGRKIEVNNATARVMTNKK
Oligonucleotide | RBNS enrichment (R)
AGACCAGGAGAAGCCACACCGUAACUCAGUCUGAGUCCAAAGCCCGAGAAGCCAGGGGCCACCCUGUGAGUCCCAGCAUCCAAAGCCCCGAGAACGAGGAAGAUGGAUGU | 0.354
GCAGGCCACCUCUGGGCAGGACCACCUGCGUCUGGCACCCAGGAGGUGAGGCAGACACCAUGGUUAGGUGAUAGGGUCUGAACCCAGUUGGGGAGACAGAGGGGUUCAGA | 0.647
GGGGGCAAGAAGACCAUGUUCCCUGCCUGUUCCCCCAGCUGCUUCUCCCAUCUUUUCUCUCUGUUCUCAGCUCCCCUGUCCCCUCCCUCGGCUCUAGACUUGGGGGAGGG | 1.21
UGAUGAUGUCACCAGUGCUGCCUCAGAUGAUACAGAGACAGGGAGUUUCAGGUGAACUUCUUCAGCAGAAUAAGGUGAUGCCACUCUGACCUUUGCUGAGCUCAGUGACU | 0.339
UUUUUGGACUUUGUAUUUUACUGCAUGUUUUCUUCAUUUUUAAUCAAUAAAGAGUAAAUUGUCCUUAGUGGUGUAUGGACGCUUUAUUUUAGUGGCCGUUGGCGGAGAGC | 18.1
UUUACAGUGCCAGAUAUUUAUACAUCAUAAACUUAGGAAAUGCCUAAAAGAGCCUAAGCAGGAAAAAUCCUAGGGUGAGGCAAUGUUUGCAUGAUGAGAGAGGAAGGGUU | 2.24
CUCAGGCAAUCUGCCCGCCUUGGCCUCCCAAAGUGCUAGGAUUACAGGUAUGAGCCACCAUGCCCGGCUGGCAGUUGUAUUUUUUAAAGCCCUUCUGAUGAUUCCAAUGU | 0.462
UCUCUCAGCCUCACCAGUGACAGAGAACAGCUGUGGUUCUCUGCUGGCCUCAGCUGAUCCAUGCUGUCUGACUCCCGGGGAGAGUUAGGAAGAUGCAAGGACCUCUCCUC | 1.03
UCCUGAGCACCAAGACCUCUUCUGGUGGUGUGGAACCAGCCAAGAGAUUUCAAGGAAGAGUGAUUAUUUGAUGAAUGCUAUGGGAAUGGCCUCUUCUCUUGGAGUUCUGA | 3.16
UAGUGUCUCUGGCUAGGGCUUCACCUUUCGGUUUUUUGUUUUUUGUUUUUUCUGGUCCCUGAGUCUGGCAUUUCUGUCUGUGACUUAGCUAUGUUUCUGAUGCCAAUCAC | 5.85
GCUGGCUUAUCGGCCACCCAAUGACCCUGUUCAGUAUCUGCUUGUCAUCUUGCCAGAACAAGCUCUCAGCAGCCCAGGAACAGUCCAUGGCCUUCUCAGGCCUGGCCCUU | 0.228
UUGACUGGGUAGGGGUCUUGUCCAUUUGUGGGGGAGGAUGUGGUGAAGGUGGACCUUCUACAAUCUGUCAUGAACUGUGAUAUUGUAAGGUCUAUAUUCUGUAUGUGGAU | 1.28

Set 2 — method: protein binding microarray; form: double-stranded DNA, one strand shown; matrix: in vitro; tested at: not given; relative to: not given; direction: higher = stronger binding
Target: Histone acetyltransferase KAT6A, winged helix 1, GST fusion (KAT6A, Homo sapiens, UniProt Q92794, residues 1-85)
Setting: 8-mer, flanks averaged, mean of 2 arrays, mostly near background
Target sequence (chain): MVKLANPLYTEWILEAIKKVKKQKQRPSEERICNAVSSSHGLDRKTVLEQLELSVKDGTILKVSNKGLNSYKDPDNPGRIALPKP
Oligonucleotide | E-score
CAGGTAAG | -0.15
CCCACGAA | -0.25
ACGAGGTG | -0.159
AATTACGA | -0.102
CACTTGCA | -0.21
TCCCGACA | 0.147
AGGGTAGA | -0.0571
CGAATGAA | -0.121
AGTTTGTG | -0.109
CGGGGGGA | -0.00431
ACGAAATA | -0.152
TAACGTTA | -0.0937
AAGGATCT | -0.209
ACAGACCA | -0.301
CGCGAAAC | 0.312
CCTTGTTC | -0.134
CCACACGC | 0.0975
TCATATAA | -0.165
GGAGGGCC | -0.0209
ACCCTACT | -0.151

Set 3 — target: CCND2, cyclin fold, Cln2 fusion (human); method: yeast growth competition, sequencing; matrix: yeast; setting: weak parent motif; relative to: not given; direction: higher = stronger binding
Starting sequence: NPAT docking peptide (human); PCHRRVLCFDSTT
Change | normalised enrichment score
P1A | -0.0366
H3A | 0.443
R5K F9L | 0.325
L7A | -0.203
C2A | 0.145
C8A | 0.0353
T13A | -0.187

Set 4 — method: protein-binding microarray; form: double-stranded DNA, one strand shown; matrix: in vitro; tested at: 2200 nM top; setting: 60-bp whole probe; added: salmon DNA 0.4 mg/ml; relative to: random background probes; direction: higher = stronger binding; constant ends, left off below: GCCTAGCAC … GTCTTGATTCGCTTGACGCTGCTG
Target: Interferon regulatory factor 7, full length, phosphomimetic (IRF7, Homo sapiens, UniProt Q92985, residues 1-503, S471D/S472D/S475D/S476D/S477D/S483D/S484D/S487D)
Construct (chain): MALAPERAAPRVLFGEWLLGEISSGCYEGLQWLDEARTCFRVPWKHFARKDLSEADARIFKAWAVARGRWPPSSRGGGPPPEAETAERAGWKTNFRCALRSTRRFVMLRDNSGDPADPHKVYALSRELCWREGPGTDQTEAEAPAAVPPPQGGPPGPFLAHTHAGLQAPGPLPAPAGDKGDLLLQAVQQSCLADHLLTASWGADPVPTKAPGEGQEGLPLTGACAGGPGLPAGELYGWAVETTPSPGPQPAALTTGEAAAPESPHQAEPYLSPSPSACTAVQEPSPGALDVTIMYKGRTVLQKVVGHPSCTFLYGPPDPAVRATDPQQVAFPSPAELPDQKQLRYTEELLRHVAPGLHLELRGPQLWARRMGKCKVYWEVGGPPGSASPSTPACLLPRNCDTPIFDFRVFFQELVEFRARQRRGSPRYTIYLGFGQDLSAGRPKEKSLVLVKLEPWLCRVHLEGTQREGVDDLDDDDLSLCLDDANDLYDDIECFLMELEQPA
Oligonucleotide | fitted relative affinity
TTAGGTATCGACTACCGGTTAGTGCTA | 0.415 z-score
TCATGTTTTCATTTTATACTGTGCTAG | 4.37 z-score
AGATCCATGCTCTGTCGCAGGGTGCTA | 0.195 z-score
GAATATATGTATATATGTGTGTGCTAG | 0.548 z-score
TCTCTTTTTGCTTTCTTTATGTGCTAG | 4.06 z-score
TTAGGACTGCTTATTCTTTAGTGCTAG | 0.055 z-score
TTAGGTATCGGGACTGGGATAGTGCTA | -0.451 z-score
AAAGATATAAATGTAACATGGTGCTAG | -0.912 z-score
TTAGGTATCCTTTTCCTGTAGTGCTAG | 1.45 z-score
TCAGATATCGGGTATCGATTAGTGCTA | 0.251 z-score
TCACATTTCAATTAGAAACTGTGCTAG | 1.11 z-score
GACGATATCAGACTGGAGCCGTGCTAG | -0.0123 z-score
TTAGGACTGCATCTCCTTTAGTGCTAG | 0.454 z-score
GTTGCTCTCCGGGGTCTGTGAGTGCTA | 0.272 z-score
GACGATCTCAGTTTCGACACGTGCTAG | 3 z-score
TCACTTCCCCTCTCTTTCACTGTGCTA | 3.15 z-score
TTAGATCTAAGTTTCGATTAGTGCTAG | 4.9 z-score
TCAGTTTTTATTTTCTGACTGTGCTAG | 3.04 z-score
GACGGTATCGACTTTCGGGACGTGCTA | 3.13 z-score
GACAATTTCAGTATCGAGACGTGCTAG | 0.789 z-score
GACGGATCCGGTTTCGGGACGTGCTAG | 3.92 z-score
CTGACCTTTTCCTGAGGCAGGTGCTAG | 0.918 z-score
CCAGGGCTCTAGAGAAATAGGTGCTAG | -1.32 z-score
GACGGTTTCGACTATCGGCACGTGCTA | 3.33 z-score
TTAGATTTCGGTTATCGATTAGTGCTA | 3.93 z-score

Set 5 — method: RNA Bind-n-Seq; form: RNA; matrix: in vitro; tested at: 200 nM; setting: whole 134-nt RNA, ends assumed; added: 150 mM KCl; relative to: input library; direction: higher = stronger binding
Target: Ras GTPase-activating protein-binding protein 1, full length (G3BP1, Homo sapiens, UniProt Q13283)
Sequence of UniProt Q13283 (whole entry, looked up): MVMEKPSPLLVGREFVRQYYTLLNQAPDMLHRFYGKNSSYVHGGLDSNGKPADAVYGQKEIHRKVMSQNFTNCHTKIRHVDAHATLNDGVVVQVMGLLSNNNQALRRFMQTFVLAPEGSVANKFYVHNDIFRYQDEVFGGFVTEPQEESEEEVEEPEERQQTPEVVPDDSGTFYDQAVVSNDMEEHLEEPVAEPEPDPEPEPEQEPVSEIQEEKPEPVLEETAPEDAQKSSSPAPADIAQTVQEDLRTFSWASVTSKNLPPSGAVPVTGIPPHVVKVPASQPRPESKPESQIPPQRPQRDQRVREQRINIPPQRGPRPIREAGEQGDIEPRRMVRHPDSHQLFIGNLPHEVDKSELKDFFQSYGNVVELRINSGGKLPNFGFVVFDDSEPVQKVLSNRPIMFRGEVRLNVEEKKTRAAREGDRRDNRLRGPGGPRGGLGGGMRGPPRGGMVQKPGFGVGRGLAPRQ
Constant ends, left off below: GGGAGUUCUACAGUCCGACGAUC … UGGAAUUCUCGGGUGUCAAGG
Oligonucleotide | log2 enrichment
GCAGGAAGUAAAAACAAAUGGAAAUGCUUCGGAUAGUGGCAGGGGUGGGGGUUGCUAAGGAAAGGGUGGGAUGGGAGUGAAAAAAGAGUU | 0.589
AGUUACGGUAGCAGUUCUCAGAGCAGCAGCUAUGGGCAGCCCCAGAGUGGGAGCUACAGCCAGCAGCCUAGCUAUGGUGGACAGCAGCAA | -1.6
UGGGAGCUGGAUUUUGUUUAUUUUUUUAGCUCAUUUCCAGGGGUGGGAAUUUUUUUUUAAUAUGUGUCAUGAAUAAAGUUGUUUUUGAAA | -0.746
UUCUCUUCACUCCCACCAGUGCGGGUGGUCUUUGCAGUGACUAUGGAAGGCAGUGCACGGAAAGUCAUCACUGUCCGGUCAGCCCUCAUU | -0.672
UCAAGUCCUGUGCUACACAUCGUAUGUACCGAAUCGGGGAAGGGGAAGGAAGGGAAAGUAUUAUGUUACGCCGUUCGGAUCUGCACUUCC | 0.0852
CAAGUCCUGUGCUACACAUCGUAUGUACCGAAUCGGGGAGGGGAGGGGUUUGGGGAAAGUAUUAUGUUACGCCGUUCGGAUCUGCACUUC | 1.12
UAACUUUAGAGGAGGAUCUGAUGGAUAUGGCAGUGGACGUGGAUUUGGGGAUGGCUAUAAUGGGUAUGGAGGAGGAGCUGGAGGUGGCAA | 0.884
AAGUCCUGUGCUACACAUCGUAUGUACCGAAUCGGGUUUUGGGGUUUUGGUUUUGGAAAGUAUUAUGUUACGCCGUUCGGAUCUGCACUU | -0.806
UCCUGUGCUACACAUCGUAUGUACCGAAUCGGGGUUUUUUUGGGGUGGGGAAAAAGGGGAAAGUAUUAUGUUACGCCGUUCGGAUCUGCA | 0.535
CUGUGCUACACAUCGUAUGUACCGAAUCGGAAAAAAAGGGGAAAAAAAGGGGAAAAAAAGGAAAGUAUUAUGUUACGCCGUUCGGAUCUG | -0.805
GCAGGAAGUAAAAACAAAUGGAAAUGCUUCGGAUAGUGGCAGGGGUGGGGGUUGCUAAGGAAAGGGUUGGAUGGGAGUGGGUAAAGAGUU | 0.87
CACAGACAACACGCACCCACACAGACACAGAGGGAAGGGGUUGGGAUGGCGACAGGGUGCACAGCAGGGCGGGGUAGGACCCCAGCCCCU | 1.43
UCCUCAAGUCCUGUGCUACACAUCGUAUGUACCGAAUCGGAGGAGGGAGGGAAAGUAUUAUGUUACGCCGUUCGGAUCUGCACUUCCAGC | -0.196
CCUCAAGUCCUGUGCUACACAUCGUAUGUACCGAAUCGGGGUGGGUGGGGUGGAAAGUAUUAUGUUACGCCGUUCGGAUCUGCACUUCCA | 1.17

Some of these lines once more (set 5):
Oligonucleotide | log2 enrichment
UGGGAGCUGGAUUUUGUUUAUUUUUUUAGCUCAUUUCCAGGGGUGGGAAUUUUUUUUUAAUAUGUGUCAUGAAUAAAGUUGUUUUUGAAA | -0.746
UUCUCUUCACUCCCACCAGUGCGGGUGGUCUUUGCAGUGACUAUGGAAGGCAGUGCACGGAAAGUCAUCACUGUCCGGUCAGCCCUCAUU | -0.672
GCAGGAAGUAAAAACAAAUGGAAAUGCUUCGGAUAGUGGCAGGGGUGGGGGUUGCUAAGGAAAGGGUUGGAUGGGAGUGGGUAAAGAGUU | 0.87
AAGUCCUGUGCUACACAUCGUAUGUACCGAAUCGGGUUUUGGGGUUUUGGUUUUGGAAAGUAUUAUGUUACGCCGUUCGGAUCUGCACUU | -0.806
